Experimental data of several laboratories.
Every numbered part comes from another study and shows a few of its results, in no order. Positions count from the first letter of the parent shown.

Study 1 — target: CCNB2, cyclin fold, Cln2 fusion (human); method: yeast growth competition, sequencing; sample: yeast; setting: strong parent motif; relative to: not given; direction: higher = stronger binding
Parent: CUX1 docking peptide (human); SRIRRELFIEEIQ
`SRIRRELFAEEIQ [I9A]`: “normalised enrichment score” -0.0244.
Under “normalised enrichment score”, `ARIRRELFIEEIQ [S1A]` is recorded as 0.937.
For `SRIRRELFIEEAQ [I12A]`, “normalised enrichment score” read 0.0931.
For `SAIRRELFIEEIQ [R2A]`, “normalised enrichment score” read 0.372.
`SRIRAELFIEEIQ [R5A]` — result for “normalised enrichment score”: 0.3.
For `SRIRKELLIEEIQ [R5K F8L]`, “normalised enrichment score” read 0.795.
`SRIARELFIEEIQ [R4A]` — result for “normalised enrichment score”: 0.266.
`SRIRAEAFIEEIQ [R5A L7A]` — result for “normalised enrichment score”: -0.137.
Under “normalised enrichment score”, `SRARRELFIEEIQ [I3A]` is recorded as -0.0865.
`SRIRKELFIEEIQ [R5K]` — result for “normalised enrichment score”: 1.34.

Study 2 — method: protein binding microarray; molecule type: double-stranded DNA, one strand shown; sample: in vitro; tested at: not given; relative to: not given; direction: higher = stronger binding
Target: Histone acetyltransferase KAT6A, winged helix 2, GST fusion (KAT6A, Homo sapiens, UniProt Q92794, residues 85-181)
Setting: 8-mer, flanks averaged, mean of 2 arrays, mostly near background
Construct (chain): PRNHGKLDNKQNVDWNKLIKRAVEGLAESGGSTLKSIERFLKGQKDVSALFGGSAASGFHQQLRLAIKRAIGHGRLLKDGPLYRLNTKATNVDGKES
`TATGCAGA` gave an E-score of 0.0861.
The E-score of `GTCCGATA` is reported as -0.103.
`AGTAAACC` gave an E-score of -0.0646.
The E-score of `GTCAACCA` is reported as -0.0726.
`AAAAGCAC` gave an E-score of -0.00136.
`ATGAAATC` gave an E-score of 0.103.
`AGCCACCC` has an E-score of 0.031.
`AAGATGGT` gave an E-score of -0.135.
The E-score of `CGCGAGGC` is reported as 0.194.
The E-score of `GCCTCCGC` is reported as 0.0797.
`AGCGGTCG` has an E-score of -0.0479.
`AAGCTCAA` has an E-score of -0.0664.
For `CACAGGAC`, the E-score was 0.124.
For `CCCACGTC`, the E-score was 0.184.
The E-score of `AAGAAGAT` is reported as 0.153.
The E-score of `TCAGCTGA` is reported as 0.00638.
For `AAAGTTGA`, the E-score was -0.106.
For `CGCACGCC`, the E-score was 0.231.
`CGCTCTTA` has an E-score of 0.127.
`ATTCAGAC` has an E-score of 0.0367.
For `CTACTCAG`, the E-score was 0.0671.
The E-score of `ACTATGAT` is reported as 0.0582.
With `GTGGACCA` the E-score was 0.062.
The E-score of `CGTCACGA` is reported as -0.0266.
`ATCAGTTA` gave an E-score of -0.0217.

Study 3 — method: DHFR PCA, deep sequencing; sample: yeast; together with: (+)-ABA 1.4 µM; relative to: wild-type fitted maximum; direction: higher = stronger binding
Target: ABI1, truncated, D143A, DHFR fusion (Arabidopsis thaliana)
Setting: methotrexate growth selection, single substitutions
Parent: PYL1, truncated, DHFR fusion (Arabidopsis thaliana); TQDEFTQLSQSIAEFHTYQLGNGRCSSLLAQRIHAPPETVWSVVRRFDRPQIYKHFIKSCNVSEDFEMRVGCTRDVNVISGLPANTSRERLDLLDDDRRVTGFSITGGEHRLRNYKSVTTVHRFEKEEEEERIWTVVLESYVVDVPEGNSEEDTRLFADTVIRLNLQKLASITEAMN
`V78G` — result for “relative binding score”: 1.05%.
`V70L` — result for “relative binding score”: 17.2%.
`L164H`: “relative binding score” 63%.
Under “relative binding score”, `F56C` is recorded as -7.26%.
`L82V`: “relative binding score” 20.6%.
Under “relative binding score”, `E129N` is recorded as 58.7%.
Under “relative binding score”, `I52M` is recorded as 57.9%.
`E89K` — result for “relative binding score”: -7%.
`L94E`: “relative binding score” 6.01%.
For `A158W`, “relative binding score” read -9.3%.
For `L91P`, “relative binding score” read -2.54%.
Under “relative binding score”, `S80E` is recorded as -6.99%.
`Q2C` — result for “relative binding score”: 69.3%.
`P50W` — result for “relative binding score”: 0.473%.
For `T106Q`, “relative binding score” read 27.8%.
`N77A` — result for “relative binding score”: 67%.
Under “relative binding score”, `G102I` is recorded as -6.33%.
`Y115F` — result for “relative binding score”: 44.6%.
`A158N`: “relative binding score” -8.39%.
Under “relative binding score”, `T6S` is recorded as 64.6%.

Study 4 — method: RNA Bind-n-Seq; molecule type: RNA; sample: in vitro; tested at: 365 nM; relative to: no-protein control; direction: higher = stronger binding
Target: RNA binding protein fox-1 homolog 2, RRM domain, GST-SBP tag (RBFOX2, Homo sapiens, UniProt O43251-10, residues 100-194)
Setting: natural RNA segment, single round, ends assumed
Target sequence (chain): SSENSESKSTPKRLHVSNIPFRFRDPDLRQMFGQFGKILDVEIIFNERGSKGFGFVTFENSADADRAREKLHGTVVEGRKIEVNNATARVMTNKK
For `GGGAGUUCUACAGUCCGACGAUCUAAUGAGACCCUGUCUCAAAAAAAGAAAAAAAAAUUUUUUGAAAUUUAGUAGGUUUUCACAAUUUUUUCUUUAGUAUAAUACAUAUUUUUCUAGCCGUUCUGAUCUGUAAUGGAAUUCUCGGGUGCCAA`, “RBNS enrichment (R)” read 1.61.
For `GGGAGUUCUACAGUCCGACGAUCAUUGUGGGAUGUUUAAAAAUGGUUUGUUGUUGUUGUUUUGGUUUCUGAAGACAGUAUUGCUAUAUAUCCCAGUCUGACCUUACUGUGUGUUUGAGGCUAACCUAGAAAUUUGGAAUUCUCGGGUGCCAA`, “RBNS enrichment (R)” read 1.9.
Under “RBNS enrichment (R)”, `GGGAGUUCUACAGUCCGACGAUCCACAGGUGCCACCUGUCCCAGAUUGUGGCUUGGCAUGGAGCUGCCCACGUCUGGCUGCUGAUGAACGGUUUAGCCCAGUGACUUCCCUCUGUGUAGCUGAGCAAGGUCUGUGGAAUUCUCGGGUGCCAA` is recorded as 0.583.
Under “RBNS enrichment (R)”, `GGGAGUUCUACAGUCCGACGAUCGGCUUUGUUACCCAGGCUGGAUUGCAAUGGGGUGAUCUAGGCUCACUGCAGCCUCCACCACCUGAGUUCAAGCGAUUUUUCUGCCUCAACCUCUCCUGAGUAGCUGGGACUGGAAUUCUCGGGUGCCAA` is recorded as 0.256.
`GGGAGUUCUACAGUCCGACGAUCGCUUCAUAGAUGGCAUAUACCCUUCACCUUCAACUAACAGGAUACUCACCCCAAAGGCGCAGUCAGGAGGGGAGGGAACCCCAGCUGGGUUAGAAUUGGAAGGGAAGAGGUGGAAUUCUCGGGUGCCAA`: “RBNS enrichment (R)” 0.429.
For `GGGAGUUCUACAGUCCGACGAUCUGGAUGUAUUGUACAGAGAACAUGAACGUCUCUUCCUAAUUUUACAUCUUCAGCAUCAUUGCAUUAAAGUGGUGUAAUCUCCUUCUCUACAUCUGUUGUCAGAGCCACUGUGGAAUUCUCGGGUGCCAA`, “RBNS enrichment (R)” read 1.15.
`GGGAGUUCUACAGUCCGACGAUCUUCCUCUUUGUGUAGGUUUCAGCCACAAAACUGUCAUUCACUCUAGGGGACCCCUACUAAAGGGUAACUUCAGGUGUGCAGCCCUGAGCUCCAAGGCUCUGCACCAUGCCUGGAAUUCUCGGGUGCCAA`: “RBNS enrichment (R)” 0.483.
For `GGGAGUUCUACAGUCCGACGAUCAAGGAAUUUCUCUUCCUUCUUCUCCUGCCUCUAGCCUCUCCUGGAAAGGCCUGGAUAUGGUUUCUAAAAUCUCAGCUGAGAACUUCAGAAAACAGCAGCAGUAUUUUCCUUGGAAUUCUCGGGUGCCAA`, “RBNS enrichment (R)” read 0.259.

A few entries again (study 2):
`CGCTCTTA` has an E-score of 0.127.
`ATTCAGAC` has an E-score of 0.0367.
For `CTACTCAG`, the E-score was 0.0671.
The E-score of `ACTATGAT` is reported as 0.0582.
